Results from different studies.
“And” joins repeats or separate records; there may be more than shown.
Target: Serine/threonine-protein kinase PLK3 (PLK3, Homo sapiens, UniProt Q9H4B4)

Structure (SMILES) | test | conditions | scale | endpoint | value
Cc1cccc(O[C@H]2CCC[C@@H](C(C)CNCc3ccncc3)C2)c1 (relative stereo) | enzyme activity, inhibitor | 1 µM |  | inhibition | -8%
COCC12C(=O)NC3C4(C(OC)CC1O)C1CC5(O)C(OC)C(O)C(OC(C)=O)(C1C5OC(=O)c1ccccc1)C3(O)C(OC)C24 (stereo not shown) | kinase activity, inhibitor, ProQinase kinase profiling | 25 µM | baseline: control | remaining activity | 101% and 105%
NC(=O)[C@@H](O)C[C@H]1CCc2sc3ncnc(O[C@H]4CC[C@H](N5CCOCC5)CC4)c3c21 | enzyme activity, inhibitor | 10 µM |  | inhibition | 3%
COc1c(Cl)cccc1Nc1c(-c2ccncc2C#C[C@@]2(C)CCCN2C(=O)/C=C/CN(C)C)[nH]c2c1C(=O)NCC2 | binding, competition with immobilised ligand | 3 µM |  | remaining binding | 94%
CCN1CCN(Cc2ccc(C(=O)Nc3ccc(C)c(NCc4cnc5[nH]ccc5c4OC)c3)cc2C(F)(F)F)CC1 | binding, competition with immobilised ligand | 1 µM |  | remaining binding | 100%
CN1C[C@@H](c2c[nH]c3cc(Br)ccc23)NC[C@@H]1c1c[nH]c2cc(Br)ccc12 | enzyme activity, inhibitor | 10 µM |  | remaining activity | 157%
CN1CCN(Cc2ccc(NC(=O)c3cccc(C#Cc4cnc(N)c5ncccc45)c3)cc2C(F)(F)F)CC1 | cell-free assay, competition with immobilised ligand | 0.5 µM |  | remaining binding | 69%
COc1ccc(NC(=O)Nc2ccc3c(c2)C(=O)N(C(C)CO)CC(C)C(CN(C)Cc2ccc4c(c2)OCO4)O3)cc1 (stereo not shown) | kinase activity, KinaseProfiler | 0.03 µM, species human | baseline: control | remaining activity | 107%
C=CC(=O)N1CCCC(n2c(=O)c3ncccc3n(Cc3ccc(Oc4ccccc4)cc3)c2=O)C1 (stereo not shown) | cell-free assay, competition with immobilised ligand | 1 µM |  | remaining binding | 61%
O=C(O)CCC(=O)c1cccc(NS(=O)(=O)c2c[nH]c3ncccc23)c1 | kinase activity, radiometric | 10 µM |  | remaining activity | 104%
CC(=O)N1c2ccc(-c3ccc(CNC(=O)c4cn5cc(-c6cnc(N)nc6)nc(N6CCOCC6)c5n4)cc3)cc2CC[C@@H]1C | KINOMEscan | 10 µM |  | remaining binding | 98%
Cc1cnc2nc1Nc1cccc(c1)COC/C=C/COCc1cc(ccc1OCCN1CCOCC1)N2 | binding | 0.1 µM |  | remaining binding | 91%
CNS(=O)(=O)Nc1nccc(Cc2c(C)c3ccc(Oc4ncccc4F)cc3oc2=O)c1F | binding, competition with immobilised ligand | 10 µM |  | remaining binding | 97%

Excerpt of the above:
Structure (SMILES) | test | conditions | scale | endpoint | value
CN1C[C@@H](c2c[nH]c3cc(Br)ccc23)NC[C@@H]1c1c[nH]c2cc(Br)ccc12 | enzyme activity, inhibitor | 10 µM |  | remaining activity | 157%
